Measured values of several laboratories.
A part holds a random share of what one study measured.

Study 1
Target: Histone acetyltransferase KAT6A, winged helix 1, GST fusion (KAT6A, Homo sapiens, UniProt Q92794, residues 1-85)
Method: protein binding microarray
Form: double-stranded DNA, one strand shown
Sample: in vitro
Concentration: not given
Notes: 8-mer, flanks averaged, mean of 2 arrays, mostly near background
Baseline: not given
Reading: higher = stronger binding
Quantity: E-score
Construct (chain): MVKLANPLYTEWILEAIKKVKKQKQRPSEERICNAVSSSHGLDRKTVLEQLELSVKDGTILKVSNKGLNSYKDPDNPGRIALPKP
ACAGTCAT: -0.155
CAAGCTCG: -0.188
CGATAATA: 0.00363
GTTACAAA: -0.071
ACTGGGAC: -0.151
CGGGCCTA: 0.224
GGACTCAA: -0.105
ATTTGATA: -0.193
GTCCCTTA: 0.104
AAGACGCA: -0.0133
TACCAACA: -0.17
AGTATGCC: -0.0396
TGGGGCAA: -0.246
GACCAGGC: -0.112
GGGGTCTA: 0.0558
TGCCGGCA: 0.409
AACGGGTA: 0.221
GTCGAATA: -0.0888
CCACTTCG: -0.096
GAGCCATC: -0.254
CCTTGGCG: 0.0986
GCAGAGCC: 0.0339

Study 2
Target: RING finger protein unkempt homolog, zinc fingers 1-6, GST-SBP tag (UNK, Homo sapiens, UniProt Q9C0B0, residues 30-357)
Method: RNA Bind-n-Seq
Form: RNA
Sample: in vitro
Concentration: not given
Notes: RNA with constant flanks, human and mouse sites, ends assumed
Baseline: input RNA pool
Reading: higher = stronger binding
Quantity: bound/input enrichment
Constant ends, left off below: GGGAGUUCUACAGUCCGACGAUC … CAACAGAGGAUUGAGCAUCA
Target sequence (chain): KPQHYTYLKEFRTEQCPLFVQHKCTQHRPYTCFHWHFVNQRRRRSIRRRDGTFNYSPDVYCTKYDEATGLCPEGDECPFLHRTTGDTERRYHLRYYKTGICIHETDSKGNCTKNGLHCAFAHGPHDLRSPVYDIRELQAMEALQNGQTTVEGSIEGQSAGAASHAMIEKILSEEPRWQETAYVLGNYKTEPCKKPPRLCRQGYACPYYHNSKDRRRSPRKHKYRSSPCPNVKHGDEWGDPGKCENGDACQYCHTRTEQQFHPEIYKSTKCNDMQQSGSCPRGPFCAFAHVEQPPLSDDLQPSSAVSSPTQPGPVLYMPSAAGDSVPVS
CUUGGCCAGGAGGGUGAUGCCAGCUAUCUUGCUUCUGAAAUAUCUACCUGGGAUGGAGUGAUAGUAACACCUUCAGAAAAGGCUUAUGAGAAGCCACCAGAGAAGAAGGAAGGAGAGGAA: 0.353 ratio
GAACGAGGACGCCUGAAGGAAGAGCUGGAAGAGGCUCGGGACAUAGCCCGGCGGCGCUCUUUAGGGAAUAUCAAGUUUAUUGGAGAGUUGUUCAAACUGAAGAUGUUAACAGAGGCAAUA: 11.1 ratio
AACUCAAUGGUUGAGGGCUCUGAACUCAAAAAGGUUCGUUCUAACUCCAGAAUUUACCAUCGGUAUUUUCUGCUGGACGCCGACAUGCAAAGCCUGAGGUGGGAGCCAUCUAAGAAGGAU: 0.0657 ratio
GGACUGGUUAUGACAGAGGCACAUCUUCCCAGUCAGACUUUGGAACAGGGCCUUGAUGUUUUAGAAAUUAUGAGAAACAUUCAUAUAUUUGUGUCCCGAUACCUCUAUAAUCUCAACAAU: 0.425 ratio
AUCAAACAUUACUUCAGUAUAGUUCCAGGAAAUGUGAGUUCUUCUCCCAGAUCUUCUGAUUUAGUCAAAUUAGCCCAAGAGUGCUGUUACCAUAAUAACAGGGGCAUUGCAGCUCAUGGA: 1.06 ratio
CUUGUAUUUCCUCCUUCUGUUGCUCUCUUUCAUUCACACACUCUCAGUUUCUCAUAUUUGUAGCUCAUUUAUUUGGUUAUUUCCUAAGAAUAUUGAAAGUGAAGCAACUAUGUGACUGUA: 0.166 ratio
UUAUGCUUUGGACACACUAUAUAAUAUAAUAUCUAAUGAAGAAGAAGAAGAAGUAGAAGAAAAUUCCACAAGACAGAGUGAAGAUUUGGGAAGCCAAUUUACAGAAAUUUUCAUUAAGCA: 0.678 ratio
UUUAUGCACAUACUUAAAGGACAGAAAUGUCUGGGAAAGUAAUUGUUAAAUAAUGAUAUGUAACUUUUUAACUUUUUAAAUAAAUAACAAGAUUUUUAAUGUGUGUCUCCCUCAGGGUUG: 2.55 ratio

Study 3
Target: Sal-like protein 4, full length isoform B (SALL4, Homo sapiens, UniProt Q9UJQ4-2, residues 1-616)
Method: universal PBM
Form: double-stranded DNA, one strand shown
Sample: in vitro
Concentration: not given
Notes: 8-mer, flanks averaged, mean of replicates
Reading: higher = stronger binding
Quantity: E-score
Construct (chain): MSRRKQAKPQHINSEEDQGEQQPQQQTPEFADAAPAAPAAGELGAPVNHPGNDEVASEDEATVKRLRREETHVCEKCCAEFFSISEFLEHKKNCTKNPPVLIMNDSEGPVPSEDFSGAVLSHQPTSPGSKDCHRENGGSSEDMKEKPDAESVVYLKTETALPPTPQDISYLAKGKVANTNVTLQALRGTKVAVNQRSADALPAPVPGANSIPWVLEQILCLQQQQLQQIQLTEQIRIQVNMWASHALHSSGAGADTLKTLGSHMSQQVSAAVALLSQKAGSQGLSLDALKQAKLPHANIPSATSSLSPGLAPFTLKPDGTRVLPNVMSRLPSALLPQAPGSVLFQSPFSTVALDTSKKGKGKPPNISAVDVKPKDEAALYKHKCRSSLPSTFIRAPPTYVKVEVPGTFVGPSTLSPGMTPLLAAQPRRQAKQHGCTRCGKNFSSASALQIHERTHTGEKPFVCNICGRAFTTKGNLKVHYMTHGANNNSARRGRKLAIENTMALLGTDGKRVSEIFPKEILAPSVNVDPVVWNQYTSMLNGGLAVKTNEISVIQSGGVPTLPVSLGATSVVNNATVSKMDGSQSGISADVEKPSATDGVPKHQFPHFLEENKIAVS
GGCAGGGA: -0.139
GAGTGGGC: -0.207
GATGCTAC: 0.0647
ACAACCCG: -0.188
CGAGGCTA: -0.0381
GACCATTA: 0.22
CGCAACTC: -0.0351
AATGTTAA: 0.299
AAGTCCCT: -0.0734
CGGATGCA: -0.12
GGCTTCTA: -0.105
ACATGGAT: 0.231
AGCGTGCG: -0.204
TAGCGTAA: 0.131
GGGTGCGA: -0.195
GAATCCCA: -0.0374
ACCAGTGA: -0.0393
ACCAGAGA: 0.0466

Study 4
Target: Prothrombin, mature alpha-thrombin (F2, Homo sapiens, UniProt P00734)
Method: aptamer microarray, sandwich
Form: DNA with 2'F-ANA
Sample: in vitro
Concentration: 200 nM
Notes: whole 15-mer aptamer, many near background
Together with: Cy3 exosite-II aptamer, 400 nM
Reading: higher = stronger binding
Quantity: mean fluorescence intensity
Oligonucleotide: GGTTGGTGTGGTTGG
2'F-ANA at 1 2 3 4 5 8 11 12 13 14: 48.2 a.u.
2'F-ANA at 1 2 4 6 7 11 12 15: 182 a.u.
2'F-ANA at 1 7 8 9 11 12 14 15: 71.6 a.u.
2'F-ANA at 1 2 3 4 5 8 13 14 15: 53.6 a.u.
2'F-ANA at 4 5 6 7 12 13 14 15: 47.5 a.u.
2'F-ANA at 1 4 7 8 9 10 12 13 14: 51.3 a.u.
2'F-ANA at 1 2 3 4 6 7 8 9 14 15: 57.6 a.u.
2'F-ANA at 2 3 5 8 10 13 14: 56.6 a.u.
2'F-ANA at 2 3 4 5 7 8 11 14 15: 54.8 a.u.
2'F-ANA at 1 2 4 7 8 9 10 11 14: 46.4 a.u.
2'F-ANA at 1 2 3 4 5 6 9 11 14: 51.5 a.u.
2'F-ANA at 1 2 3 4 5 6 12 15: 97.7 a.u.
2'F-ANA at 1 2 3 4 6 9 11 12 13: 157 a.u.
2'F-ANA at 1 2 3 4 6 8 11 12 14: 71.6 a.u.
2'F-ANA at 1 5 8 9 11 12 13 15: 73.7 a.u.
2'F-ANA at 3 8 9 10 11 12 14: 464 a.u.
2'F-ANA at 1 2 3 6 7 12 14: 82.2 a.u.
2'F-ANA at 5 6 15: 68.9 a.u.
2'F-ANA at 1 2 5 7 8 9 11 12 13 14 15: 88.5 a.u.
2'F-ANA at 2 3 5 7 8 11 14 15: 61.4 a.u.
2'F-ANA at 4 7 11 13 14 15: 99.7 a.u.
2'F-ANA at 2 7 9 13: 372 a.u.
2'F-ANA at 7 8 10 11 12 14 15: 121 a.u.
2'F-ANA at 7 8 9 10 11 12 14 15: 110 a.u.

Excerpt of the above (study 4):
2'F-ANA at 4 7 11 13 14 15: 99.7 a.u.
2'F-ANA at 2 7 9 13: 372 a.u.
2'F-ANA at 7 8 10 11 12 14 15: 121 a.u.
2'F-ANA at 7 8 9 10 11 12 14 15: 110 a.u.
